Experimental data pooled from the literature.
A part holds a random share of what one study measured. Positions count from the first letter of the parent shown.

Sample 1 — target: CCNA2, cyclin fold, Cln2 fusion (human); technique: yeast growth competition, sequencing; matrix: yeast; setting: strong parent motif; relative to: not given; direction: higher = stronger binding; endpoint: normalised enrichment score
Starting sequence: BRCA2 docking peptide (human); CKKRRALDFLSRL
CKKARALDFLSRL [R4A]: 1.31
CKKRAAADFLSRL [R5A L7A]: 1.97
CKARRALDFLSRL [K3A]: 3.5
CKKRKALDLLSRL [R5K F9L]: 1.68
CKKRRALDLLSRL [F9L]: 1.88
CAKRRALDFLSRL [K2A]: 2.24
AKKRRALDFLSRL [C1A]: 2.57
CKKRRALDFLARL [S11A]: 2.11
CKKRRALDFLSRA [L13A]: 2.77

Sample 2 — technique: competition protein-binding microarray; molecule type: double-stranded DNA, one strand shown; matrix: in vitro; tested at: 2 µM; with: Cbf1 competitor, 0.05 µM; direction: higher = stronger binding; endpoint: fluorescence intensity
Target: Phosphate system positive regulatory protein PHO4, full length, GST-tagged (PHO4, Saccharomyces cerevisiae, UniProt P07270, residues 1-312)
Setting: whole 60-bp probe, lowest competitor level
Residues (chain): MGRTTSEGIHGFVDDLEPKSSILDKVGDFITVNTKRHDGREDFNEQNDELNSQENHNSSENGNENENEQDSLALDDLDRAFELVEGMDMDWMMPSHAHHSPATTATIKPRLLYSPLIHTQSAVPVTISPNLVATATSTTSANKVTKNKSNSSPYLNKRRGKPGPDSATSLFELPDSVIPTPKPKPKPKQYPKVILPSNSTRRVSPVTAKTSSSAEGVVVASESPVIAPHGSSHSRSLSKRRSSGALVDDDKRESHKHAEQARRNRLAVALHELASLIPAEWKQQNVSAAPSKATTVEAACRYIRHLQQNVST
CTAACGAAGGTTTGCCAAGTGGGTGACAAGCCAAGTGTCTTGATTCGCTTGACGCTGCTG: 4090 a.u.
CCATTAAAAATAATATGTGTGATATTCTTCCACACGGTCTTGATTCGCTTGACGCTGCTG: 5980 a.u.
GACAGTCTTAGTGTAGACATGACAGTTCTTGGTGGCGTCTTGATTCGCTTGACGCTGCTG: 3860 a.u.
CTTCTGTAAATTTTTCACGTGGCATGAAGCGCCCCGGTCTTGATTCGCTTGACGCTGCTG: 13300 a.u.
CTAACGAAGGTTTGGAGCGTGGGTGACAAGCCAAGTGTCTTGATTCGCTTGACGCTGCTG: 8170 a.u.
CCACATCTGTCTCTCAATGGTCAAATACCGTTTTAAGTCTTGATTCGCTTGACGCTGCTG: 4380 a.u.
CATACCCAACCTTGCTGCGTGGGTGAAGATATTTGTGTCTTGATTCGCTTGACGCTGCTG: 9780 a.u.
TGCGCAACAACTTGATCGGTGGGTGTATGTCTAGAAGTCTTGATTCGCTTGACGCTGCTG: 4360 a.u.
CTAACGAAGGTTTGTCACCCTACTTACAAGCCAAGTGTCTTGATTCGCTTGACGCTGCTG: 3420 a.u.
AAATTACCGCCTTGACTCGTGAAACTGGATAATTCGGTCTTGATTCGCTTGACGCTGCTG: 4110 a.u.
GATGTTTCCGTCACCGACATGACAATAACCACTTGAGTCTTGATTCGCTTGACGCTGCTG: 3740 a.u.
TTGGCCGGGTCTTGTCACGTGAAGAGAGAAATTCGGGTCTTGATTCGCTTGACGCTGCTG: 10200 a.u.
CTTTCCCGATCTTGGAACGTGGGTGTAGCACATTTGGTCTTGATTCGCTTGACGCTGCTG: 15000 a.u.
AATATCCTCAACCTACACGTCTTCACCATCGGCACCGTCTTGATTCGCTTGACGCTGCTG: 5930 a.u.
AGTATAGGGCATTTAAAGGTGTGCCAGCAGCGGGTTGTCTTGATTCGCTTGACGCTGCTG: 6570 a.u.
CATACCCAACCTTGCCCGGTGGGTGAAGATATTTGTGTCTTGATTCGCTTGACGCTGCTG: 3910 a.u.
TGCGCAACAACTTTTCACGTGATTTTATGTCTAGAAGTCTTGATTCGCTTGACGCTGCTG: 11000 a.u.
AAAGCGGTAATTTGCAAAGTGGGTGCAGATATCTATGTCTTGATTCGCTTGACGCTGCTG: 4080 a.u.
GAGGCAAAATAAGATCGTGTGTTTCAAATTGCCTTAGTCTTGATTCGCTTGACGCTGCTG: 6780 a.u.

Sample 3 — technique: RNA Bind-n-Seq; molecule type: RNA; matrix: in vitro; tested at: 365 nM; relative to: no-protein control; direction: higher = stronger binding; endpoint: RBNS enrichment (R)
Target: RNA binding protein fox-1 homolog 2, RRM domain, GST-SBP tag (RBFOX2, Homo sapiens, UniProt O43251-10, residues 100-194)
Setting: natural RNA segment, single round, ends assumed
Construct (chain): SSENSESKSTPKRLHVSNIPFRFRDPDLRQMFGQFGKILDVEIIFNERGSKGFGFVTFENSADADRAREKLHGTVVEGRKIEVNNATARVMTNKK
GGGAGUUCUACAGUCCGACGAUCGUUGUGGGGUGGUAGUGUGAAUGGCUUGAGGAGGCCUAAUGGCAGGGGCUCUGCUGAAGUGGCCUUCCACUGGAGUCUUGUUCUCAACAGUCCCUUGUGCCAGGUCAGCUUGGAAUUCUCGGGUGCCAA: 0.362
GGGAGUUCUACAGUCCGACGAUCGCGGCCCUUCCUGCAGCGCCUGCCGCCCCGGGGACUCGCAGCACCCACAGCACCACGUCCUCGAAUUCUCAGACGACACCUGGAGACUGUCCCGACACAGCGACGCUCCCUGGAAUUCUCGGGUGCCAA: 0.443
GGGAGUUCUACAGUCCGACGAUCUUCUCUAGUUCGUUGGUUUUUAACAUGAAGGUGUCUUUGGGGAGGACCUGGAUCAUGCUACCUGUGUUUAAAAAUAAUGCGCUUUGCCUAACCUUCAGCCGAAUGUAACUUGGAAUUCUCGGGUGCCAA: 1.06
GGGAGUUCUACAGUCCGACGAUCAAAGUCUUGGUUUGUCUUGCUGCUGUAAAAGGCCUUUCCAAACCCCUCCUUUUAUUCCUGUUUCCCGAAAUAAGGUAUUUGUAGAGUUAAGGACCUACUGCAUGCCUGUCUGGAAUUCUCGGGUGCCAA: 5.52
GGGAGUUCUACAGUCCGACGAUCUGCUGAGCUCUUUAAGGAAGGUGGUGCAGAAAGCCGUGCUGUGCUUUCCCUGUGUGGUCUGCCCUCCACCUCUGAGGCCAGCUCAUCAGAUCUGACCUGCCUGAGACAACUGGAAUUCUCGGGUGCCAA: 0.265
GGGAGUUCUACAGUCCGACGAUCAUAAUAUAGAGUGAAAGUUAACAUACUAACAUUUCUCCUUUGGAGGAAGUUUUAAUCCACUUCAGGAUGCAUAUUAGCAAGAUACUUUCAUAUACAGGAUAGCCUAAUUUUGGAAUUCUCGGGUGCCAA: 0.242
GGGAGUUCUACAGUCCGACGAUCAAGCAGCCAACAGGCUCCCUCUCACUUAAGAGAGUUCUAAUUAAUAACACUAAAUUCUUCCUGAGAAAUGACUCCUCUUGGUUUGGUUUGAAGUUUUUCAGUGAAGGAAAUGGAAUUCUCGGGUGCCAA: 0.458
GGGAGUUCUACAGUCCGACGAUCCUCCUUCUAUUAGGAAUGGCAUAUACUGAGGUGGUCGUAAGUCUUAACUUCUAAAAUUUUAAAUAAAGACUUUGCACAUUGAACCCCUUAUCCCUGAAUUGUGUUUGUCGUGGAAUUCUCGGGUGCCAA: 2.47
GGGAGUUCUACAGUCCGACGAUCUAUUAUAUUUGGAUGCAGAGUUCAGGGAAGAUAAGUUGGAAACACUAAAUGUUAAAGAUGUAGCAAACCCUGUCAAACAUUAGUACUUUAUAGAAGAAUGCAUGCUUUCCUGGAAUUCUCGGGUGCCAA: 17.2
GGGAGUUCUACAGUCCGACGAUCUAAUCACCACUUCUCGAUGUCUAUUUCAAAUCAAGGCUCCUGAGUAGGGGGUGAAGUGAGCCAGCUUGCACCUCAGGCUAACACAUAGGACUUUGCUCAGCCAUGUCCCCUGGAAUUCUCGGGUGCCAA: 0.417
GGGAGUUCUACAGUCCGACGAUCUAUUCCCGGGGUACCAAGCAGCUGCACAGUCGGUGCCUGGGAGGCACGUAGAGGCCCAGAGAGUCCCUGGGGGUUCUGCUCUGACCGUGUGGGUGGUGAUCCUUGUCAGGUGGAAUUCUCGGGUGCCAA: 0.919
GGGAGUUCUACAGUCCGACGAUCCGAAAGCCCCCUCUUCAACUCCUCUCACUUUUUAAAGCAUUGAUAUUAGUAUCUUCUCAGAUACAGACCGUUUUAUGAUUUUUUAAAAAGUAAAAGUUCUAAAAUGAAGUUGGAAUUCUCGGGUGCCAA: 0.47

Further values, each from its own experiment
PhoQ, residues 284 288 289 292 302 303 SVTLVV — fold induction (PhoP, residues 12 14 15 18 19 TTLRV (Escherichia coli, UniProt P23836); Sort-seq, item: YFP reporter; E. coli; PhoQ-PhoP variant library, with: 10 µM Mg2+; relative to: high Mg2+ state, higher = stronger signaling): 2.22
